Experimental data collected from several papers.
Compare with care: the assays were run in different laboratories. In brackets after ≈: the same amount, converted by molar mass.
Chain of UniProt Q70CQ1 (whole entry, looked up): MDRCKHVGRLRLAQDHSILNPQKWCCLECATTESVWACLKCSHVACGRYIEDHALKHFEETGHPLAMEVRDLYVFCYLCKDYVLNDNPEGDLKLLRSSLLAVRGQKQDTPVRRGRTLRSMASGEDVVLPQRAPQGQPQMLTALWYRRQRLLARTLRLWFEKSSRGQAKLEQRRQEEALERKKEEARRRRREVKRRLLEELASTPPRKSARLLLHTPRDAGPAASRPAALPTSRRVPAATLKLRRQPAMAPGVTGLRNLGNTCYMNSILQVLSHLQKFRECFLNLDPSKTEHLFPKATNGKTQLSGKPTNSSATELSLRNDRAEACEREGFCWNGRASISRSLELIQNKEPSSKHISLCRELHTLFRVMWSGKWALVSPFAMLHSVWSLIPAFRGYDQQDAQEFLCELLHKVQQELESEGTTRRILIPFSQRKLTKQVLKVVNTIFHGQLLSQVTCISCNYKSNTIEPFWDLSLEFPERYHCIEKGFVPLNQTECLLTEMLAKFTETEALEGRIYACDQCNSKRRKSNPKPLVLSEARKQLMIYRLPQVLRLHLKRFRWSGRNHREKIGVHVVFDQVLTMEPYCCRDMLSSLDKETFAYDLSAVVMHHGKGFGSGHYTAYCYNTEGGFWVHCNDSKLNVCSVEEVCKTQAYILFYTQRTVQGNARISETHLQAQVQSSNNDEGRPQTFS
Chain of UniProt Q9Y2K6 (whole entry, looked up): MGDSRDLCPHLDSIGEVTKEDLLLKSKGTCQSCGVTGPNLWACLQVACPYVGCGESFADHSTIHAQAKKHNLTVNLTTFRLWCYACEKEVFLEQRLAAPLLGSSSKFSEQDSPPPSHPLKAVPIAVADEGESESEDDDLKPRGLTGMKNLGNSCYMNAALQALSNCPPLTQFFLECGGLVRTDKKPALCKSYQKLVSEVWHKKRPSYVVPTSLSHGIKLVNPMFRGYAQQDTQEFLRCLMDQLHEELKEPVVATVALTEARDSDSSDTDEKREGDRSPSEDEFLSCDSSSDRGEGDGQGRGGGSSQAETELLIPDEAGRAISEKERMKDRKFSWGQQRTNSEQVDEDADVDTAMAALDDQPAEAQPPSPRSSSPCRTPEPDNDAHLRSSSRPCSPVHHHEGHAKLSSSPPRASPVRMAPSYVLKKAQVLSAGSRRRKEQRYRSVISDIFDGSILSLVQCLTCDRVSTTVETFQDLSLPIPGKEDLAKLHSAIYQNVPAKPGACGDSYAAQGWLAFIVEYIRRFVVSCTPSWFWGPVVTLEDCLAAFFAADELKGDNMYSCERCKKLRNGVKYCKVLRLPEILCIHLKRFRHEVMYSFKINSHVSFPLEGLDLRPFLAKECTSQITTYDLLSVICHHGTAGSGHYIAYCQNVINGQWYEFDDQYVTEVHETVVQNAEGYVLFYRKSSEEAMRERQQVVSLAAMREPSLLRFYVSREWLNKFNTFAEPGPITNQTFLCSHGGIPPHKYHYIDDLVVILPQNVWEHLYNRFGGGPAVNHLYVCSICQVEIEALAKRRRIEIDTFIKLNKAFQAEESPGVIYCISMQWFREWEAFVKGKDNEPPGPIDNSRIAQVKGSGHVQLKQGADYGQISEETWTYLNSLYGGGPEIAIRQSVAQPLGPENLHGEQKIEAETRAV
Chain of UniProt Q9Y616 (whole entry, looked up): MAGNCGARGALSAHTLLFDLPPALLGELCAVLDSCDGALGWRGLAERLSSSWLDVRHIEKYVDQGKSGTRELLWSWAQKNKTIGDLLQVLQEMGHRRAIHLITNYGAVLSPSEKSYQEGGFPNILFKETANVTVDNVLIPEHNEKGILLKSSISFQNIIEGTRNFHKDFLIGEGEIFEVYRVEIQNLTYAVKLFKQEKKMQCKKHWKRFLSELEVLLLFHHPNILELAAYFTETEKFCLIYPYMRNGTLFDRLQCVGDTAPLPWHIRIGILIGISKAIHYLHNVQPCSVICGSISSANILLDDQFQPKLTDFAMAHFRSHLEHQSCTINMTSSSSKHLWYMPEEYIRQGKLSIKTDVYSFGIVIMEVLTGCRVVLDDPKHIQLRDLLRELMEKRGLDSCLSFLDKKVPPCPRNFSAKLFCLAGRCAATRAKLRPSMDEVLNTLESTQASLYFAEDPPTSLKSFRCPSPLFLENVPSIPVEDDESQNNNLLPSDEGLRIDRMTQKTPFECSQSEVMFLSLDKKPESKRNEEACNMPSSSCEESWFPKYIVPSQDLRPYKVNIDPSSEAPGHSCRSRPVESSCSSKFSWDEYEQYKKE

Structure (SMILES)	target or system	assay	test system	conditions	how to read	quantity	result
Cn1cc(-c2ccc(-c3cncc(Cl)c3N3CCC4(CCNC4=O)CC3)cc2)cn1	COLO 205	gene expression, microarray, measured: SLC2A1 (GLUT1) mRNA		concentration not given, 6 h	relative to: untreated cells	log2 fold change	3.07
CC(C)CC(=O)SCCNC(=O)CCNC(=O)[C@H](O)C(C)(C)COP(=O)(O)OP(=O)(O)OC[C@H]1O[C@@H](n2cnc3c(N)ncnc32)[C@H](O)[C@@H]1OP(=O)(O)O		binding, equilibrium dialysis LC-MS		5 µM, thermostabilized A2AR-BRIL construct	relative to: no-protein control, direction not given	z-scored log2 fold change	-0.105
Cc1cc2c(F)c(Oc3ncnn4cc(OC[C@@H](C)O)c(C)c34)ccc2[nH]1	NLRP3 inflammasome (mouse)		mouse BMDM	10 µM		inhibition	51.3%
CN(C)C[C@@H]1CCn2cc(c3ccccc32)C2=C(C(=O)NC2=O)c2cn(c3ccccc23)CCO1	iCell Cardiomyocytes (hiPSC-derived)	xCELLigence Cardio impedance		concentration not given, 2 h	relative to: control	beat rate	71.9%
C[C@H](O)CC(=O)O		binding, equilibrium dialysis LC-MS		5 µM, thermostabilized A2AR-BRIL construct	relative to: no-protein control, direction not given	z-scored log2 fold change	-0.0853
CN1CCN(c2ccc3nc(-c4c(N)c5c(F)cccc5[nH]c4=O)[nH]c3c2)CC1	iCell Cardiomyocytes (hiPSC-derived)	cellular impedance		concentration not given, 24 h	relative to: control	cell index	106%
Cc1ccc(C(=O)Nc2ccc(Oc3cc4cnn(C)c4cc3-c3cn[nH]c3)c(F)c2)c(=O)n1-c1ccc(F)cc1	NLRP3 inflammasome (mouse)		mouse BMDM	10 µM		inhibition	29.4%
Nc1nc2c(ncn2[C@@H]2O[C@H](COP(=O)(O)OP(=O)(O)O[C@H]3O[C@H](CO)[C@@H](O)[C@H](O)[C@@H]3O)[C@@H](O)[C@H]2O)c(=O)[nH]1		binding, equilibrium dialysis LC-MS		5 µM, thermostabilized A2AR-BRIL construct	relative to: no-protein control, direction not given	z-scored log2 fold change	0.111
Cc1cccc(C)c1N(CC(=O)Nc1ccc(-c2ncon2)cc1)C(=O)C1CCS(=O)(=O)CC1	human alphaherpesvirus 1	viral replication, GFP signal	K26 GFP, 3D skin equivalent, air-liquid	48 h		IC50	0.15 µM
C=CC(=O)N1CCC[C@@H](n2nc(-c3ccc(Oc4ccccc4)cc3)c3c(N)ncnc32)C1	NLRP3 inflammasome (mouse)		mouse BMDM	10 µM		inhibition	-26.4%
O=C(Nc1ccc([N+](=O)[O-])cc1Cl)c1cc(Cl)ccc1O	human alphaherpesvirus 1		primary human fibroblasts, K26 GFP		relative to: CC50 over IC50	selectivity index	52.6
NC(=O)c1cnc2[nH]ccc2c1N[C@@H]1[C@@H]2CC3C[C@H]1C[C@@](O)(C3)C2		flow cytometry, measured: CD8+ central memory T cells	Japanese healthy subjects, peripheral blood	oral, 10 mg twice daily, day 7		change from baseline	-0.28%
Cc1cn(-c2cc(NC(=O)c3ccc(C)c(Nc4nccc(-c5cccnc5)n4)c3)cc(C(F)(F)F)c2)cn1	iCell Cardiomyocytes (hiPSC-derived)	cellular impedance		concentration not given, 24 h	relative to: control	cell index	103%
Nc1nc(-c2ccccc2)nc2[nH]nc(Nc3ccc(C(F)(F)F)cc3)c12	coxsackievirus B3		31-1-93, NMRI mice, CVB3 chronic myocarditis	oral, 100 mg/kg twice daily, day 19, dosed days 0 to 6, score scale 0 to 7	direction not given	clinical score	0
CC[C@@H]1[C@H](F)C(=O)N[C@@H]1COc1nccc2cc(C(N)=O)c(OC)cc12	Interleukin-1 receptor-associated kinase 3 (IRAK3, Homo sapiens, UniProt Q9Y616)	ATP-site probe binding, inhibitor, ActivX ATP probe profiling	THP-1 cell lysate	probe site Lys1		IC50	0.072 µM
O=Cc1cc(O)ccc1O		binding, equilibrium dialysis LC-MS		5 µM, thermostabilized A2AR-BRIL construct	relative to: no-protein control, direction not given	z-scored log2 fold change	0.365
O=C(O)CCn1nnc(-c2ccccc2)n1	Ubiquitin carboxyl-terminal hydrolase 20, ZnF-UBD domain (USP20, Homo sapiens, UniProt Q9Y2K6)					Kd	677 µM
CCS(=O)(=O)N1CCN(c2ccc(Nc3ncc(C(N)=O)c(NC4CC4)n3)cc2)CC1	NLRP3 inflammasome (mouse)		mouse BMDM	10 µM		inhibition	16%
C=CC(=O)Nc1cc2c(Nc3ccc(F)c(Cl)c3)ncnc2cc1OCCCN1CCOCC1	iCell Cardiomyocytes (hiPSC-derived)	CellTiter-Glo		concentration not given, 24 h	relative to: control	ATP level	98.3%
CC1(C)CC(=O)c2c(C(F)(F)F)nn(-c3ccc(C(N)=O)c(N[C@H]4CC[C@H](O)CC4)c3)c2C1	human alphaherpesvirus 1	live-cell GFP imaging	primary human fibroblasts, K26 GFP			IC50	0.05 µM
Cc1ccc(-n2nc(C(C)(C)C)cc2NC(=O)Nc2ccc(OCCN3CCOCC3)c3ccccc23)cc1	iCell Cardiomyocytes (hiPSC-derived)	cellular impedance		concentration not given, 24 h	relative to: control	cell index	101%
CC(C)(C)c1nc(-c2cccc(NS(=O)(=O)c3c(F)cccc3F)c2F)c(-c2ccnc(N)n2)s1	NLRP3 inflammasome (mouse)		mouse BMDM	10 µM		inhibition	28.3%
COC(=O)[C@@H](CCSC)NCc1cc2ccccc2nc1SC	Pseudomonas aeruginosa			32 µg/mL, with: pentamidine 50 µM	relative to: control	growth	81%

Structure (SMILES)	target or system	assay	test system	conditions	how to read	quantity	result
CN[C@H](CC(C)C)C(=O)N[C@H]1C(=O)N[C@@H](CC(N)=O)C(=O)N[C@H]2C(=O)N[C@H]3C(=O)N[C@H](C(=O)N[C@H](C(=O)O)c4cc(O)cc(O)c4-c4cc3ccc4O)[C@H](O)c3ccc(c(Cl)c3)Oc3cc2cc(c3O[C@@H]2O[C@H](CO)[C@@H](O)[C@H](O)[C@H]2O[C@H]2C[C@](C)(N)[C@H](O)[C@H](C)O2)Oc2ccc(cc2Cl)[C@H]1O	Streptococcus pneumoniae		penicillin-resistant, 10 isolates	serum 0%		MIC50	0.5 µg/mL (≈ 0.345 µM)
c1coc(-c2n[nH]cc2-c2ccnc3ccccc23)c1	SSK2 (Candida albicans)	kinase binding, MIB/MS competition	Candida albicans lysate	1 µM	relative to: DMSO	log2 fold change	-0.36
O=C(/C=C\n1cnc(-c2cc(C(F)(F)F)cc(C(F)(F)F)c2)n1)NNc1ccccn1	human alphaherpesvirus 1		K26 GFP, 3D skin equivalent, air-liquid		relative to: CC50 over IC50	selectivity index	> 66.7
CC(C)Nc1cc(-c2c[nH]c(C(=O)N[C@H](CO)c3cccc(Cl)c3)c2)c(Cl)cn1	NLRP3 inflammasome (mouse)		mouse BMDM	10 µM		inhibition	-29.8%
N[C@@H](CS(=O)(=O)O)C(=O)O		binding, equilibrium dialysis LC-MS		5 µM, thermostabilized A2AR-BRIL construct	relative to: no-protein control, direction not given	z-scored log2 fold change	-0.22
O=C(NC1CCNCC1)c1[nH]ncc1NC(=O)c1c(Cl)cccc1Cl	iCell Cardiomyocytes (hiPSC-derived)	xCELLigence Cardio impedance		concentration not given, 2 h	relative to: control	beat rate	94%
C=CC(=O)Nc1cccc(Oc2nc(Nc3ccc(N4CCN(C)CC4)c(F)c3)nc3[nH]ccc23)c1	NLRP3 inflammasome (mouse)		mouse BMDM	10 µM		inhibition	95.1%
CC(C)NCC(O)c1ccc(O)c(O)c1 (stereo not drawn)			ventricular cardiomyocytes, C57BL/6 mouse	dose not given, 0.84 s		sarcomere length	1.51 µm
O=C(O)CCc1nccs1	Ubiquitin carboxyl-terminal hydrolase 49, ZnF-UBD domain (USP49, Homo sapiens, UniProt Q70CQ1)					Kd	> 1000 µM
Cc1ncc(COP(=O)(O)O)c(C=O)c1O		binding, equilibrium dialysis LC-MS		5 µM, thermostabilized A2AR-BRIL construct	relative to: no-protein control, direction not given	z-scored log2 fold change	1.13
CC1(C)CNc2cc(NC(=O)c3cccnc3NCc3ccncc3)ccc21	iCell Cardiomyocytes (hiPSC-derived)	xCELLigence Cardio impedance		concentration not given, 2 h	relative to: control	beat amplitude	98.3%
CC(=O)N[C@@H](CCCN)C(=O)O		binding, equilibrium dialysis LC-MS		5 µM, thermostabilized A2AR-BRIL construct	relative to: no-protein control, direction not given	z-scored log2 fold change	0.332
Cc1nc(N(C)C(=O)Cc2ccc(-c3ccccn3)cc2)sc1S(N)(=O)=O	human alphaherpesvirus 1	live-cell GFP imaging	primary human keratinocytes, K26 GFP			IC50	0.14 µM
c1ccc(-c2n[nH]cc2-c2ccnc3ccccc23)nc1	orf19.3456 kinase Candida albicans	MIB/MS competition binding	Candida albicans cell lysate	100 nM	relative to: DMSO, lower = stronger binding	log2 fold change	1.33
Oc1ccccc1-c1n[nH]cc1-c1ccnc2ccccc12	SSK2 (Candida albicans)	kinase binding, MIB/MS competition	Candida albicans lysate	1 µM	relative to: DMSO	log2 fold change	0.22
C[C@H](Oc1ccc(Br)cc1-c1ccon1)C(=O)O		muscle velocity recovery cycles	human, tibialis anterior muscle	200 mg once daily, multiple doses, multiple ascending dose	relative to: placebo	interstimulus interval at ESN	0.446 ms
CCn1cc(-c2cc(Cn3ccoc3=N)cc3c2CCN([C@@H](C)c2cc(OC)ccn2)C3=O)c(C(F)(F)F)n1	AN3-CA	cell growth, inhibitor		120 h		EC50	0.861 µM
C=CC(=O)N1CC/C(=C\c2ccc(F)c([N+](=O)[O-])c2)C(=O)/C(=C/c2ccc(F)c([N+](=O)[O-])c2)C1	human alphaherpesvirus 1		primary human keratinocytes, K26 GFP		relative to: CC50 over IC50	selectivity index	1.43
CN(C)C/C=C/C(=O)Nc1cc2c(Nc3ccc(F)c(Cl)c3)ncnc2cc1O[C@H]1CCOC1	iCell Cardiomyocytes (hiPSC-derived)	xCELLigence Cardio impedance		concentration not given, 2 h	relative to: control	beat amplitude	91.2%
N=C(N)NCCC[C@H](N)C(=O)O		binding, equilibrium dialysis LC-MS		5 µM, thermostabilized A2AR-BRIL construct	relative to: no-protein control, direction not given	z-scored log2 fold change	0.441
O=c1cc(-c2ccc(O)cc2)oc2cc(O)c([C@@H]3O[C@H](CO)[C@@H](O)[C@H](O)[C@H]3O)c(O)c12	NLRP3 inflammasome (mouse)		mouse BMDM	10 µM		inhibition	9.89%
OC(CCN1CCCCC1)(c1ccccc1)C1CC2C=CC1C2 (stereo not drawn)		resting-state EEG	healthy elderly humans	oral, 4 mg, eyes closed, LS mean	relative to: baseline	change in EEG Beta2-power Pz-O1	-11.1%
